Measured values of several laboratories.
Numbers after ± are the reported error.
B1: PTPN2 (Homo sapiens, UniProt P17706); chain MPTTIEREFEELDTQRRWQPLYLEIRNESHDYPHRVAKFPENRNRNRYRDVSPYDHSRVKLQNAENDYINASLVDIEEAQRSYILTQGPLPNTCCHFWLMVWQQKTKAVVMLNRIVEKESVKCAQYWPTDDQEMLFKETGFSVKLLSEDVKSYYTVHLLQLENINSGETRTISHFHYTTWPDFGVPESPASFLNFLFKVRESGSLNPDHGPAVIHCSAGIGRSGTFSLVDTCLVLMEKGDDINIKQVLLNMRKYRMGLIQTPDQLRFSYMAIIEGAKCIKGDSSIQKRWKELSKEDLSPAFDHSPNKIMTEKYNGNRIGLEEEKLTGDRCTGLSSKMQDTM
B2: enzyme A497K (Streptomyces platensis, UniProt A0A0A0V031); chain MQHTTIGDVLREHRRSHPGRTALVDGPVRLTWPELDDRVNRLAGSLAASGIGRGDRIMWLGQNSFRVYELIAAAGKLGAMVCVGYWRWAPPEMEFALRDFDPHLVVWQHQEIHETVARTREALGSDDTARWLRHDSAPQDPDGYEAFLAAGGLADPDLDIDPDSPVLVLYTAAMSGRQCGSLLSHTNLIAMATAAAWLGDIDHTTAFLNSGPMFHIGNHQFWGMPTLLMAGKNVIVRRVVAEEVRDLLVAEECTHAFLMPPTVAEIVRLNRDTGHDLSRLRATVAPHLWEGMATTDTSRFTRSGAAAGRGYGQTELSGFAVTAAYGGPAAGNAGRPGPGLTVRVLDTAGRECAVGEAGEICARGTVVHRGYWNRDEVNAHRFRSGWWHTTDLGRREPDGSLTFLGTTTRMLKSAAENIFPAEVENCIEQHPAVREAAVIGVPNTRWAQDVKAVVVLEPDAGVSEQEIIDHCRPRIASYKKPKSVAFAAALPRTVSGKRDYDALDKEYGGGGYPGAATLGPGR
B3: dmaW (Aspergillus fumigatus, UniProt Q50EL0); chain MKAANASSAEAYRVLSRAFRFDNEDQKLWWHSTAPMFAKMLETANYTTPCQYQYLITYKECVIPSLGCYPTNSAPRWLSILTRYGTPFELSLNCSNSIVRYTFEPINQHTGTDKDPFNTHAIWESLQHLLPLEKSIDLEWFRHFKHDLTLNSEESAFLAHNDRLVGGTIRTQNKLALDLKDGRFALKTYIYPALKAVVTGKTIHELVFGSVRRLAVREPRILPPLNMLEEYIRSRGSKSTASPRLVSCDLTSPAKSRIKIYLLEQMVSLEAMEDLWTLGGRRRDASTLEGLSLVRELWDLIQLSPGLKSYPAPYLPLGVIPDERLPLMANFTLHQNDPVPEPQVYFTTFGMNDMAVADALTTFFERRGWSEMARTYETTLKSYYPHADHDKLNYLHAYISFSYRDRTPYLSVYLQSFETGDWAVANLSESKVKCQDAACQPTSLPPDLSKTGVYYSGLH
B4: enzyme E416A (Streptomyces platensis, UniProt A0A0A0V031); chain MQHTTIGDVLREHRRSHPGRTALVDGPVRLTWPELDDRVNRLAGSLAASGIGRGDRIMWLGQNSFRVYELIAAAGKLGAMVCVGYWRWAPPEMEFALRDFDPHLVVWQHQEIHETVARTREALGSDDTARWLRHDSAPQDPDGYEAFLAAGGLADPDLDIDPDSPVLVLYTAAMSGRQCGSLLSHTNLIAMATAAAWLGDIDHTTAFLNSGPMFHIGNHQFWGMPTLLMAGKNVIVRRVVAEEVRDLLVAEECTHAFLMPPTVAEIVRLNRDTGHDLSRLRATVAPHLWEGMATTDTSRFTRSGAAAGRGYGQTELSGFAVTAAYGGPAAGNAGRPGPGLTVRVLDTAGRECAVGEAGEICARGTVVHRGYWNRDEVNAHRFRSGWWHTTDLGRREPDGSLTFLGTTTRMLKSAAANIFPAEVENCIEQHPAVREAAVIGVPNTRWAQDVKAVVVLEPDAGVSEQEIIDHCRPRIASYKKPKSVAFAAALPRTVSGARDYDALDKEYGGGGYPGAATLGPGR

Substance | target or system | assay | test system | conditions | scale | quantity | value
C=Cc1c(C)c2cc3nc(c4c5[nH]c(cc6nc(cc1[nH]2)C(C)=C6CC)c(C)c5C(=O)C4)[C@@H](CCC(=O)NCC(=O)N1CCC[C@H]1C(=O)N[C@@H](CC(C)C)C(=O)NCC(=O)N[C@@H](Cc1ccccc1)C(=O)N[C@@H](CCCNC(=N)N)C(=O)N[C@H](C(=O)NCC(=O)N[C@@H](CCCCN)C(N)=O)C(C)C)[C@@H]3C | OA patient chondrocytes | flow cytometry | – | 1 µM, 24 h | reference: untreated | mean fluorescence intensity | 38 ± 11 times
B1 (PTPN2) | CCCC[C@H](NC(=O)[C@H](CC(=O)O)NC(=O)[C@H](CC(=O)O)NC(=O)[C@H](CCC(=O)O)NC(=O)[C@H](Cc1ccc(OP(=O)(O)O)cc1)NC(=O)[C@H](CC(=O)O)NC(=O)[C@H](CC(=O)O)NC(=O)[C@H](CCC(=O)O)NC(=O)[C@H](CC(C)C)NC(=O)[C@H](CCC(=O)O)NC(=O)[C@H](CCC(=O)O)NC(=O)c1ccc2c(c1)C1(OC2=O)c2ccc(O)cc2Oc2cc(O)ccc21)C(=O)N[C@@H](CCC(=O)O)C(=O)N[C@@H](CCC(=O)O)C(N)=O | steady-state kinetics | – | 21 °C | – | kcat | 30 ± 1.7 s⁻¹
B2 (enzyme A497K) | C[C@@]12CCC[C@@](C)(C(=O)OP(=O)(O)OC[C@H]3O[C@@H](n4cnc5c(N)ncnc54)[C@H](O)[C@@H]3O)[C@H]1C[C@@H](O)[C@]13C[C@H]4C[C@H](O[C@@]4(C)C1)[C@@H]23 | steady-state kinetics | – | pH 7.8, 25 °C | – | kcat | 26 s⁻¹
ATTTAAGATATCTTAAAT (dsDNA) | repressor C2 1-216 E44A (Salmonella phage P22, UniProt P69202) | filter binding | double-stranded DNA, one strand shown | – | – | binding | binds
C[C@H]1COc2c(N3CCN(C)CC3)c(F)cc3c(=O)c(C(=O)N[C@@H](CCCNC(=N)N)C(=O)N[C@@H](Cc4ccc(-c5ccccc5)cc4)C(=O)N[C@@H](CCCNC(=N)N)C(=O)N[C@@H](Cc4ccc(-c5ccccc5)cc4)C(=O)N[C@@H](CCCNC(=N)N)C(N)=O)cn1c23 | human erythrocytes | – | – | 6.25 µM, 1 h, 37 °C | reference: Triton X-100 | hemolysis | 0%
ATGATCAGTACGATGTTCACTGTACTCTGACTCGCCTGACATGACTGACGGACTTGCACT (ssDNA) | ccrMIM 1-358 H317A (Caulobacter vibrioides, UniProt P0CAW2) | EMSA | single-stranded DNA | added: sinefungin 60 µM | – | Kd | 101 ± 32.1 nM
B3 (dmaW) | O=P(O)(O)OP(=O)(O)OCC=C1CCCCC1 | steady-state kinetics | – | pH 7.5, 35 °C | – | kcat/Km | 36.7 ± 6.67 M⁻¹ s⁻¹
N=C(N)NCCC[C@@H]1NC(=O)[C@H](CCCCNC(=O)CCOCCOCCOCCOCCNC(=O)CC[C@H](NC(=O)CCOCCOCCOCCOCCNC(=O)CC[C@H](NC(=O)CN2CCN(CC(=O)O)CCN(CC(=O)O)CCN(CC(=O)O)CC2)C(=O)NCCOCCOCCOCCOCCC(=O)N[C@@H](CCC(=O)NCCOCCOCCOCCOCCC(=O)NCCCC[C@@H]2NC(=O)[C@@H](Cc3ccccc3)NC(=O)[C@H](CC(=O)O)NC(=O)CNC(=O)[C@H](CCCNC(=N)N)NC2=O)C(=O)NCCOCCOCCOCCOCCC(=O)NCCCC[C@@H]2NC(=O)[C@@H](Cc3ccccc3)NC(=O)[C@H](CC(=O)O)NC(=O)CNC(=O)[C@H](CCCNC(=N)N)NC2=O)C(=O)NCCOCCOCCOCCOCCC(=O)NCCCC[C@@H]2NC(=O)[C@@H](Cc3ccccc3)NC(=O)[C@H](CC(=O)O)NC(=O)CNC(=O)[C@H](CCCNC(=N)N)NC2=O)NC(=O)[C@@H](Cc2ccccc2)NC(=O)[C@H](CC(=O)O)NC(=O)CNC1=O [indium-111 labelled] | – | – | female athymic nude mice, heart | intravenous, 3 µCi, 72 h, U-87 MG glioma xenograft | – | tissue uptake | 0.37 ± 0.07 %ID/g
B4 (enzyme E416A) | C[C@@]12CCC[C@@](C)(C(=O)OP(=O)(O)OC[C@H]3O[C@@H](n4cnc5c(N)ncnc54)[C@H](O)[C@@H]3O)[C@H]1C[C@@H](O)[C@]13C[C@H]4C[C@H](O[C@@]4(C)C1)[C@@H]23 | steady-state kinetics | – | pH 7.8, 25 °C | – | kcat | 0.21 s⁻¹
N=C(N)NCCC[C@@H]1NC(=O)[C@H](CCCCNC(=O)CC[C@H](NC(=O)CCOCCOCCOCCOCCNC(=O)CN2CCN(CC(=O)O)CCN(CC(=O)O)CCN(CC(=O)O)CC2)C(=O)NCCCC[C@@H]2NC(=O)[C@@H](Cc3ccccc3)NC(=O)[C@H](CC(=O)O)NC(=O)CNC(=O)[C@H](CCCNC(=N)N)NC2=O)NC(=O)[C@@H](Cc2ccccc2)NC(=O)[C@H](CC(=O)O)NC(=O)CNC1=O [indium-111 labelled] | – | – | athymic nude mice, female, U-87 MG glioma xenograft, spleen | intravenous, 3 µCi, 4 h | – | tissue uptake | 1.75 ± 0.27 %ID/g
GTTTTAGAGCTGTGCTGTTTCGAATGGTTCCAAAAC (dsDNA duplex) | csn2 full length assumed (Streptococcus agalactiae, UniProt E7S4M0) | EMSA | double-stranded DNA, one strand shown | – | – | binding | binds
CC[C@H](C)[C@H](NC(=O)[C@H](CCCCN)NC(=O)[C@H](C)NC(=O)CNC(=O)[C@H](C)NC(=O)[C@H](CCCCN)NC(=O)[C@H](CC(C)C)NC(=O)[C@H](CCCNC(=N)N)NC(=O)[C@H](Cc1ccccc1)NC(=O)[C@H](CC(N)=O)NC(=O)[C@H](Cc1ccccc1)NC(=O)[C@@H](N)CSCCC(=O)c1ccc2cc(N(C)C)ccc2c1)C(=O)N[C@@H](CCCNC(=N)N)C(=O)N[C@@H](Cc1ccccc1)C(=O)NCC(N)=O | HeLa | MTT | – | up to 10 µM, up to 1 h, serum-free | – | viability | ~65%
ATGATCAGTACGATGTTCACTGTACTCTGACTCGCCTGACATGACTGACGGACTTGCACT (dsDNA; hemimethylated N6-methyladenine) | ccrMIM 1-358 G305A (Caulobacter vibrioides, UniProt P0CAW2) | EMSA | double-stranded DNA, one strand shown | added: sinefungin 60 µM | – | binding | binds

Some of these lines once more:
Substance | target or system | assay | test system | conditions | scale | quantity | value
ATGATCAGTACGATGTTCACTGTACTCTGACTCGCCTGACATGACTGACGGACTTGCACT (dsDNA; hemimethylated N6-methyladenine) | ccrMIM 1-358 G305A (Caulobacter vibrioides, UniProt P0CAW2) | EMSA | double-stranded DNA, one strand shown | added: sinefungin 60 µM | – | binding | binds
